Experimental data from different studies.
Numbered parts are unrelated; each lists some results of a single study.

Series 1 — method: protein-binding microarray; form: double-stranded DNA, one strand shown; sample: in vitro; tested at: 250 nM; setting: 60-bp whole probe; with: salmon DNA 0.4 mg/ml; baseline: random background probes; reading: higher = stronger binding; endpoint: log fluorescence; all sequences stand within: GCCTAGCAC … GTCTTGATTCGCTTGACGCTGCTG
Target: Interferon regulatory factor 5, full length, phosphomimetic (IRF5, Homo sapiens, UniProt Q13568-2, residues 1-514, K96S/S451D/S453D/S456D/S462D)
TCACAGCTGTTTTTCTCACTGTGCTAG: 0.677 z-score
TTAGATTTCGCGTATCGATTAGTGCTA: 3.73 z-score
TCAAGTCTTCTCCTCTAACTGTGCTAG: -0.089 z-score
CTGCACTCCAGTCTGGGAGAGTGCTAG: -0.312 z-score
TTAGATCTCAGTCTCGATAAGTGCTAG: 0.759 z-score
TCAGTTTTTCATTTTTTACTGTGCTAG: 1.61 z-score
TTTGGACTGCTTATCCTTTAGTGCTAG: -0.102 z-score
TCTCTTTTATTTTTTTTATTGTGCTAG: 1.83 z-score
GACGGTATCCTTTTCCTAACGTGCTAG: 0.504 z-score
TTAGATTTCAGTTTCGATTGGTGCTAG: 10.2 z-score
TCACATATGCTTTTTAGACTGTGCTAG: 0.446 z-score
GACGGTTTCGGAATCGGGACGTGCTAG: 6.03 z-score
TCAGGTCTCGGTTTCGGTTAGTGCTAG: 8.68 z-score
GACGGACTGGGGACTAGGGACGTGCTA: -0.396 z-score
GACGGTCTCGGTCTGGGGACGTGCTAG: -0.0537 z-score
TTAGGACTGGGACTGGGTTAGTGCTAG: -0.278 z-score
TTAGATTTCTGGTATCGATTAGTGCTA: 6.28 z-score
TTAGGGCTCGGTATCGGTTAGTGCTAG: 4 z-score
TTAGATACCAGTCTCGATTAGTGCTAG: 0.919 z-score
GACGGACTGGGGCATCGGGACGTGCTA: -0.763 z-score
TTAGGTTTCGTTATCCTTTAGTGCTAG: 7.43 z-score
TTAGGTTTCCTTATCCTTTAGTGCTAG: 1.19 z-score
TCATTCCTAATTCTCTTACTGTGCTAG: 0.618 z-score
TCAGGTTCCCATTCCAGACTGTGCTAG: -0.112 z-score
TAAATTTTCACGGTGGGTTCGTGCTAG: 0.813 z-score

Series 2 — method: RNA Bind-n-Seq; form: RNA; sample: in vitro; tested at: 1 µM; setting: whole 134-nt RNA, ends assumed; with: 150 mM KCl; baseline: input library; reading: higher = stronger binding; endpoint: log2 enrichment
Target: Ras GTPase-activating protein-binding protein 1, C-terminal RGG region (G3BP1, Homo sapiens, UniProt Q13283)
UniProt Q13283, sequence (whole entry, looked up): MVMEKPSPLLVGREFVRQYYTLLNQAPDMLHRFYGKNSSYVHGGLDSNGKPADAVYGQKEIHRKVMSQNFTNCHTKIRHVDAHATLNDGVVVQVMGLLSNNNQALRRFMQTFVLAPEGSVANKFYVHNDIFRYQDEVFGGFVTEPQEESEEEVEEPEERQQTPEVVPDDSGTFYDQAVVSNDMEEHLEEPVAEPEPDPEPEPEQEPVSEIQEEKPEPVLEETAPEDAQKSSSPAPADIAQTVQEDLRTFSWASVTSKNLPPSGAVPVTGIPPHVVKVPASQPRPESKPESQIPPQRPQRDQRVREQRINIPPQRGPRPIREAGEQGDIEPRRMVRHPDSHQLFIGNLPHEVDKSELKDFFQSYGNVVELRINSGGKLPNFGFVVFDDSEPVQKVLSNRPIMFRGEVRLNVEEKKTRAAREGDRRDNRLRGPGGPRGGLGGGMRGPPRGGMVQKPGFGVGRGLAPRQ
All sequences stand within: GGGAGUUCUACAGUCCGACGAUC … UGGAAUUCUCGGGUGUCAAGG
AGUCCUGUGCUACACAUCGUAUGUACCGAAUCGGGGAAAGGGGUUUGGGGAAAGGGGAAAGUAUUAUGUUACGCCGUUCGGAUCUGCACU: 4.02
CAAGUCCUGUGCUACACAUCGUAUGUACCGAAUCGGAAAGGAAAGGGGAAAGGGGAAAGUAUUAUGUUACGCCGUUCGGAUCUGCACUUC: -1.02
CUCAAGUCCUGUGCUACACAUCGUAUGUACCGAAUCGGAGGAAAAAAAGGUGGAAAGUAUUAUGUUACGCCGUUCGGAUCUGCACUUCCA: -1.32
AUUUCUCAGUUGAAGGAUGCUUACACUCUUGUCCAUCUAGACCUCAAUUACUGUUUUUCAGGAAUGUCUGAUCACAGAUACGGGGAUGGU: -1.17
UGGGAGGUGGAUUUUGUUUAUUUUUUUAGCUCAUUUCCAGGGGUGGGAAUUUUUUUUUAAUAUGUGUCAUGAAUAAAGUUGUUUUGGAAA: 2.47
UGUGCUACACAUCGUAUGUACCGAAUCGGGGAAAAAAAGGGAAAAAAAGGGGAAAAAAAGGGAAAGUAUUAUGUUACGCCGUUCGGAUCU: -0.947
UGUUGUCUGGGUUUGGGGGUCGAGUAGAUGCGGGGCAGCCGGAGCUGUUGACGGAAAGGAGUAGCCCCAAAGGAGGGCAUGUGAAGUCGC: -0.908
CCUGUGCUACACAUCGUAUGUACCGAAUCGGGUUUUUUUGGGGUUUUUUUGGUUUUUUUGGAAAGUAUUAUGUUACGCCGUUCGGAUCUG: -1.16
UAACUUUAGAGGAGGAUCUGAUGGAUAUGGCAGUGGACGUGGAUUAGGGGAUGGCUAUAAUGGGUAUGGAGGAGGACCUGGAGGUGGCAA: -1.04
ACCAUGCAGGUGGGCAUCUUUGGGAAGUGGGGCAAGGGGGGGAUAGGGAGGGGGGUAACACAUUGGGAACAGGUGGUCCCAGGUCGUUUC: 2.21
CAAGUCCUGUGCUACACAUCGUAUGUACCGAAUCGGGAAAAAAAGGGAGGGUGGGAAAGUAUUAUGUUACGCCGUUCGGAUCUGCACUUC: 1.48
CAAGUCCUGUGCUACACAUCGUAUGUACCGAAUCGGGGAAAGGGGUGGGGUGGGGAAAGUAUUAUGUUACGCCGUUCGGAUCUGCACUUC: 2.69
UCCUGUGCUACACAUCGUAUGUACCGAAUCGGUUUUUUGGGUUUUUUGGGGUUUUUUGGGAAAGUAUUAUGUUACGCCGUUCGGAUCUGC: -0.579
CUCAAGUCCUGUGCUACACAUCGUAUGUACCGAAUCGGAGGUUUGGAAAAAGGAAAGUAUUAUGUUACGCCGUUCGGAUCUGCACUUCCA: -1.28

Series 3 — method: protein binding microarray; form: double-stranded DNA, one strand shown; sample: in vitro; tested at: not given; baseline: not given; reading: higher = stronger binding; endpoint: E-score
Target: Histone acetyltransferase KAT6A, winged helix 2, GST fusion (KAT6A, Homo sapiens, UniProt Q92794, residues 85-181)
Setting: 8-mer, flanks averaged, mean of 2 arrays, mostly near background
Construct (chain): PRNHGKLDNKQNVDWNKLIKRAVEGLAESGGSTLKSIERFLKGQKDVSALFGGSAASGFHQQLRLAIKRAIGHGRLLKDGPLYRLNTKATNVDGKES
CGTGTTAC: -0.00644
ATGGTCGG: 0.0476
CCAATGCA: -0.104
CATTGTAG: -0.0674
CCATTGAC: -0.143
CCCTCGCC: 0.0805
AGGTTTCG: -0.0386
AATGCTTA: -0.127
AAGTCGCA: 0.0644
CGCACATC: 0.0696
TAGAGTGA: -0.00785
GAGATAGC: -0.00741
AAGTTGGG: -0.174
CTCTTAAC: -0.0306
GGAAATGA: 0.0472
AAGTGTGC: -0.0146
GGTTTATA: 0.0218
GCAATGAC: 0.0452
AGCGCCAA: -0.0725
CGGGACTA: 0.0662
AATCGACA: -0.0152
GTTGATTA: 0.188

Series 4 — method: RNA Bind-n-Seq; form: RNA; sample: in vitro; tested at: not given; baseline: input RNA pool; reading: higher = stronger binding; endpoint: bound/input enrichment
Target: RING finger protein unkempt homolog, zinc fingers 1-6, GST-SBP tag (UNK, Homo sapiens, UniProt Q9C0B0, residues 30-357)
UniProt Q9C0B0, sequence (30-357, looked up): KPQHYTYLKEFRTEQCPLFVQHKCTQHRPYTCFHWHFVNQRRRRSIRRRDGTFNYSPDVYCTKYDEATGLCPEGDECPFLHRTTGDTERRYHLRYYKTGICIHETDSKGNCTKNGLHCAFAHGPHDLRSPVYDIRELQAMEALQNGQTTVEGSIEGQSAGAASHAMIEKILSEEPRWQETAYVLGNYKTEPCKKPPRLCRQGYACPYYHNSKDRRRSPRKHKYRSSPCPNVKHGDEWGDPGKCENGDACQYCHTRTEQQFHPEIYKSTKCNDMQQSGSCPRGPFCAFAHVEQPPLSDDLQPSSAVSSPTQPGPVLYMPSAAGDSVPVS
Setting: RNA with constant flanks, human and mouse sites, ends assumed
All sequences stand within: GGGAGUUCUACAGUCCGACGAUC … CAACAGAGGAUUGAGCAUCA
AGGCAUUAUCUCAUUCAUACCGGUCAAAAGCCAUUUGAAUGUGAUGUGUGCCAUAAAAACUUUAGACAACUCGUUCAUCUGGAGAGGCAUCAGUUAACUCACAAUCUGCCUUUCAGUUGU: 0.142 ratio
GAUUCAAAUGAUGAAUCUGUUGACACCUUAUAACUCCCAUCUCCCUAUCUAUAUUUUUGUCUCUAAGAGAUCAAGUAAGAUACAUGUUGUUCAUAUUCAUAACAACUUAUUAGAGCUAUG: 0.41 ratio
ACACCUCUGUUUCUUGCUGCCCGGGAGGGGAGCUAUGAAGCAGCCAAGAUCCUGUUAGACCAUUUUGCCAAUCGAGACAUCACAGACCAUAUGGAUCGUCUUCCCCGGGAUGUGGCUCGG: 0.247 ratio
AAGGAUUCGUCGCAUCCAGUGGAUUUUCUGGAUGCAUUCAGAACGUUUUACAUGGAUGGACUAUUUACUGAUAUUACCCUUCAGUGUCCUUCAGGCAUAAUCUUCCAUUGUCACCGAGCU: 0.176 ratio
GGCCGACUCUACCAAGUAGAAUAUGCUUUUAAGGCUAUUAACCAGGGUGGACUUACAUCUGUUGCUGUCAGAGGAAAGGACUGUGCAGUUAUUGUCACACAGAAGAAAGUACCCGACAAA: 0.825 ratio
CAGAAGCCACGUUUGUCUGGGCACAAACUGUGAUUUCUCUCUUGCCUGUGUUUUAUCUUAUUUUAUCUUAUUUCUCGCUUGCCCUAUGUAGGCCAAACUGGCUUCCAGUGUGCCUCCCGC: 3 ratio
GAUUAUCUUCGUUCAAAUGGCUAUGAAGAGGCAUAUUCAGUUUUUAAAAAGGAAGCUGAAUUAGAUGUGAAUGAAGAAUUAGAUAAAAAGUAUGCUGGUCUUUUGGAAAAAAAAUGGACA: 3.65 ratio
ACUCUAAAGACCCUUCUACAUACUUUAUGCAAAUUAAAAGGACCUAAAAUCCUAGACCACCUUACAAUGAUUGAUAAUAAGAAUGAGUCAGAAUUGGAGGCCCACCUGUGUCGGAUGAUG: 0.394 ratio
GGGAGCGCAGAGCGGCCUUUCCAGCAUGCAGCGGCUGCUCAGAGUAUAGAAAUAUCAAGAAAUAGGAGAGAAUUCAACCAUGGCCCCACGGAAGAGAGGCGGCCGGGGGAUUUCAUUUAU: 4.01 ratio
UUAGUACCAAGAUGUUCUUUUUUCAUUAUCAGUCUUUCAGAUGUCUAUUUUCUUGCUGAAUAGCAGAGGACUUUAUUUCCACCUCCCUAUAAAGUGUGAGCACUGUGUUUCAGCGAGCUG: 1.01 ratio
AUGGCAUAAAAUGUACCUUUGUUCUUAUUGUAUAAUAUUGAGGCUAUUACUAAUUAUUCAUAUAGGUCCCAGCAACAGAUAGAAAUGCUUUAAGUUCGCUCUGGGGAAAACUGGCCUCUG: 0.83 ratio

Series 5 — method: protein-binding microarray; form: double-stranded DNA, one strand shown; sample: in vitro; tested at: 0.8 µM; setting: whole 60-bp probe, no competitor; reading: higher = stronger binding; endpoint: fluorescence intensity; all sequences stand within: … GTCTTGATTCGCTTGACGCTGCTG
Target: Centromere-binding protein 1, full length, N-terminal tag (CBF1, Saccharomyces cerevisiae, UniProt P17106, residues 1-351)
UniProt P17106, sequence (whole entry, looked up): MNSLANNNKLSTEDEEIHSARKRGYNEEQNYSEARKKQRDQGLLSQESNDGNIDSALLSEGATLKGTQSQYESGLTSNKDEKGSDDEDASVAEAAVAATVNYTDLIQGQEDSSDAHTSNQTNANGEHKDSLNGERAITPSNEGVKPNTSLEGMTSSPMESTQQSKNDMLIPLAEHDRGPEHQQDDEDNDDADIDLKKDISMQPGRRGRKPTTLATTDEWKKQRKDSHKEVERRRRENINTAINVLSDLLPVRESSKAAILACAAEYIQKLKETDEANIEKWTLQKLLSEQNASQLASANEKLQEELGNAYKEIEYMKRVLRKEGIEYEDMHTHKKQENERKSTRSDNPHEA
GAAGTGACAAGAGGTGGTGACATAAAAATAACCTAG: 600 a.u.
CTATTCGGTAGATATCACATGGAATACTGCAGCTTC: 908 a.u.
GAAGTACCTTTCTACCACGAGCAGTGTACTTTTTAG: 555 a.u.
CCTAACTACTATAATCGCGTGTTATAGCTTCGTACA: 558 a.u.
GAAAACAGAGACTGCCACGTTATCAGCATCGCGTAG: 576 a.u.
GAACCAATGAGTCAAAACCACGTGTAATTAATATAG: 4000 a.u.
GAATATTTTGTATATCTGATGCTATAGCCTCTATAG: 481 a.u.
GAAGAATTAATTAGTCTCACATGGCTGACATAATAG: 898 a.u.
CTAATGTAGTATACACACGTGGACGACCATTAATTC: 2630 a.u.
GAAGAAGATCCAATCATCACCATTGCGCGATCATAG: 491 a.u.
CTAGCCCGTGCCTTCCACGCGCAACTGTTCTCTTTC: 572 a.u.
GAATACTGGTTTTAGCACGAGTTACCGACTATTTAG: 615 a.u.
GAAAGTCACTTTAACCACGAGGGGAAAAAACACTAG: 719 a.u.
CTAGCATATCAAAATCACGTATTGACTATGACATTC: 617 a.u.
CTAAAAACGAAGTGACACGTAATTTCAAATTTATTC: 504 a.u.
GAATGTAACCTTGATCACATGCGACGGGAGTTCTAG: 2510 a.u.

A few entries again (series 2):
CUCAAGUCCUGUGCUACACAUCGUAUGUACCGAAUCGGAGGAAAAAAAGGUGGAAAGUAUUAUGUUACGCCGUUCGGAUCUGCACUUCCA: -1.32
AUUUCUCAGUUGAAGGAUGCUUACACUCUUGUCCAUCUAGACCUCAAUUACUGUUUUUCAGGAAUGUCUGAUCACAGAUACGGGGAUGGU: -1.17
UGGGAGGUGGAUUUUGUUUAUUUUUUUAGCUCAUUUCCAGGGGUGGGAAUUUUUUUUUAAUAUGUGUCAUGAAUAAAGUUGUUUUGGAAA: 2.47
UGUGCUACACAUCGUAUGUACCGAAUCGGGGAAAAAAAGGGAAAAAAAGGGGAAAAAAAGGGAAAGUAUUAUGUUACGCCGUUCGGAUCU: -0.947
UGUUGUCUGGGUUUGGGGGUCGAGUAGAUGCGGGGCAGCCGGAGCUGUUGACGGAAAGGAGUAGCCCCAAAGGAGGGCAUGUGAAGUCGC: -0.908
CCUGUGCUACACAUCGUAUGUACCGAAUCGGGUUUUUUUGGGGUUUUUUUGGUUUUUUUGGAAAGUAUUAUGUUACGCCGUUCGGAUCUG: -1.16
UAACUUUAGAGGAGGAUCUGAUGGAUAUGGCAGUGGACGUGGAUUAGGGGAUGGCUAUAAUGGGUAUGGAGGAGGACCUGGAGGUGGCAA: -1.04
ACCAUGCAGGUGGGCAUCUUUGGGAAGUGGGGCAAGGGGGGGAUAGGGAGGGGGGUAACACAUUGGGAACAGGUGGUCCCAGGUCGUUUC: 2.21
CAAGUCCUGUGCUACACAUCGUAUGUACCGAAUCGGGAAAAAAAGGGAGGGUGGGAAAGUAUUAUGUUACGCCGUUCGGAUCUGCACUUC: 1.48
CAAGUCCUGUGCUACACAUCGUAUGUACCGAAUCGGGGAAAGGGGUGGGGUGGGGAAAGUAUUAUGUUACGCCGUUCGGAUCUGCACUUC: 2.69
